# Measurements from different studies.
# Lines come from different studies, so protocols differ. Values joined by “and” are separate records of one study, mostly repeats; a detail may differ. Numbers after ± are the reported error.
Structure (SMILES),test,system,conditions,how to read,endpoint,result
O=C(Nc1cnccc1-c1ccc([18F])nc1)c1ccnc(NC(=O)C2CC2)c1,ex vivo gamma counting,"FVB/NJ mice, both sexes, cecum","intravenous, 120 min, with: tariquidar 15 mg/kg iv",,mean SUV,1.7
O[C@@H]1[C@@H](O)[C@H](n2cc(COc3ccc(-c4nncnn4)cc3)nn2)O[C@H](C[18F])[C@H]1O,,"BALB/c nude mouse, LS174T xenograft","intravenous, dose not given, 1 h, with: CC49-TCO pretargeting",,tumour to control tumour ratio,3
C=Cc1c(C)c2cc3nc(c(CC(=O)O)c4[nH]c(cc5nc(cc1[nH]2)C(C)=C5CC)c(C)c4C(=O)O)[C@@H](CCC(=O)OCCOCCOCCOC)[C@@H]3C,LC-MS,methanol-water 9:1,"4 h, pH 2.0",,compound loss,28%
CC[C@H](C)/C=C/C=C/C=C/C(O)=C/C(=O)C(Cl)(Cl)Cl,UPLC-MS,PBS with DMSO,"100 µM, 1 h, pH 7.4, room temperature, 1% DMSO",,hydrate fraction,2.2 ± 0.1%
CC(C)(F)CC(NC(c1ccc(-c2ccc(S(C)(=O)=O)cc2)cc1)C(F)(F)F)C(=O)NCC#CBr (stereo not drawn),,PBS,"100 µM, 23 h, pH 8, 37 °C, with: cysteine 10 mM",,cysteine adduct formation,66%
C=CC(=O)Nc1cc(Nc2nccc(-c3cn(C)c4ccccc34)n2)c(OC)cc1N(C)CCNC,storage stability,human dried blood spot,"2 h, -80 °C, MQC level",,recovery,96.1%
O=C(OC(C(F)(F)F)C(F)(F)F)N1CCC(CNS(=O)(=O)c2ccc(Cl)cc2)CC1,,"CB17 SCID mice, male, brain","oral, 10 mg/kg",,Tlast,8 h
CCCCN1C(=O)c2cccc3c(NCCCCCCN4CCOCC4)ccc(c23)C1=O,,ethyl acetate,,,fluorescence quantum yield,1.03
CC(=O)N[C@@H](Cc1ccccc1)C(=O)N[C@@H](CC(C)C)C(=O)NCC(=O)N[C@H](C(=O)N[C@@H](CC(C)C)C(=O)N[C@@H](C)C(=O)N[C@@H](CC(C)C)C(=O)N[C@@H](CC(C)C)C(=O)NCC(=O)N[C@@H](Cc1ccc(O)cc1)C(=O)N[C@@H](CC(C)C)C(=O)N[C@@H](C)C(=O)N[C@H](C(=O)N[C@@H](CCCNC(=N)N)C(=O)N1CCC[C@H]1C(=O)N[C@@H](Cc1ccccc1)C(=O)N[C@@H](CC(C)C)C(=O)N1CCC[C@H]1C(=O)N[C@@H](CCCCN)C(=O)N[C@@H](CCCCN)C(=O)N[C@@H](CCCCN)C(=O)N[C@@H](CCC(N)=O)C(=O)N[C@@H](CCC(N)=O)C(=O)N[C@@H](CCCCN)C(N)=O)C(C)C)C(C)C,LC-MS,DOPC/DOPA vesicles with trypsin,"10 µM, 12 h, pH 7.2",,cleaved to intact ratio,2.5 ± 1
C=CC(=O)Nc1cc(Nc2nccc(-c3c[nH]c4ccccc34)n2)c(OC)cc1N(C)CCN(C)C,storage stability,human plasma,"30 d, on ice, LLOQ level",,recovery,44.1%
CC(C)[C@H](NC(=O)[C@H](Cc1c[nH]c2ccccc12)NC(=O)[C@H](CCCNC(=N)N)NC(=O)[C@H](CCCNC(=N)N)NC(=O)[C@@H](NC(=O)[C@@H](NC(=O)[C@H](CCCNC(=N)N)NC(=O)[C@@H](NC(=O)[C@@H](NC(=O)[C@H](CCCNC(=N)N)NC(=O)[C@H](CCCNC(=N)N)NC(=O)[C@@H](NC(=O)[C@H](Cc1c[nH]c2ccccc12)NC(=O)[C@H](CCCNC(=N)N)NC(=O)[C@H](CCCNC(=N)N)NC(=O)[C@@H](NC(=O)[C@H](CCCNC(=N)N)NC(=O)[C@H](CCCNC(=N)N)NC(=O)[C@@H](NC(=O)[C@H](Cc1c[nH]c2ccccc12)NC(=O)[C@H](CCCNC(=N)N)NC(=O)[C@@H](N)CCCNC(=N)N)C(C)C)C(C)C)C(C)C)C(C)C)C(C)C)C(C)C)C(C)C)C(=O)N[C@@H](CCCNC(=N)N)C(=O)N[C@@H](CCCNC(=N)N)C(=O)O,dipstick,"CD1 mouse, urine","intravenous, 15 mg/kg, 6 h, [14C]-labelled compound",,urine pH,5.5
O=C([O-])CN1CCN(CC(=O)[O-])CCN(CC(CCCc2ccccc2[N+](=O)[O-])N(CC(=O)[O-])CC(=O)[O-])CC1.[90Y+3] (stereo not drawn),HPLC,human serum,"264 h, pH 7, 37 °C",,intact radiolabelled complex,100%
COc1ccnc(C(=O)N[C@H]2COC(=O)[C@H](Cc3ccccc3)[C@@H](OC(=O)C(C)C)[C@H](C)OC2=O)c1O,,whole water/sediment system,"geometric mean, top-down approach",,DT50,2.7 days
CC(C)(O)c1ncc([S@](N)(=O)=NC(=O)Nc2c3c(cc4c2CCC4)CCC3)s1,measured: Cardiac disorders,healthy human volunteers,"oral, 25 mg twice daily, 14 days, enteric-coated tablet",,subjects with adverse events,13%
CCn1c(=O)c(-c2cc(NC(=O)Nc3ccccc3)c(F)cc2Br)cc2cnc(N)cc21,,human plasma,"150 ng/mL, 24 h, 24 °C, low QC",,short-term stability accuracy,0.58%
CCCN(C)c1cc(C(F)(F)F)nc(SCCC(=O)NCc2ccco2)n1,,"Wistar rat, anaesthetised with isoflurane","intraperitoneal, 25 mg/kg, 2 h",baseline: vehicle,systolic blood pressure,no effect
CC(=O)N[C@H](CC(=O)O)C(=O)N[C@H](Cc1c[nH]c2ccccc12)C(=O)N[C@H](Cc1ccccc1)C(=O)N[C@H](CCCCN)C(=O)N[C@H](C)C(=O)N[C@H](Cc1ccccc1)C(=O)N[C@H](Cc1ccc(O)cc1)C(=O)N[C@H](CC(=O)O)C(=O)N[C@H](CCCCN)C(=O)N[C@@H](C(=O)N[C@H](C)C(=O)N[C@H](CCC(=O)O)C(=O)N[C@H](CCCCN)C(=O)N[C@H](Cc1ccccc1)C(=O)N[C@H](CCCCN)C(=O)N[C@H](CCC(=O)O)C(=O)N[C@H](C)C(=O)N[C@H](Cc1ccccc1)C(N)=O)C(C)C,,"human, plasma","oral, dose not given, 0.25 h post-dose, day 13",,plasma concentration,71.1 ng/mL
Cc1cc(-c2ccc(C(=O)[C@@H]3CCCC[C@H]3C(=O)Nc3cnn4c3C(=O)NCC4)cc2)[nH]n1,,"human, faeces","oral, 200 mg",baseline: dose,cumulative recovery of radioactivity,85.4% and 82.1% and 74.4% and 76.8% and 75.8% and 81.3%
[123I]c1ccc2nc(-c3ccc(-n4ccnn4)nc3)cn2c1,,"male Wistar rat, liver","intravenous, 4 MBq, 6 h",,tracer uptake,0.183 %ID/g
CC(C)C[C@H](NC(=O)[C@@H](CCCCNC(=O)[C@@H](Cc1ccccc1)NC(=O)CCCCCCCNC(=O)CN1CCN(CC(=O)O)CCN(CC(=O)O)CCN(CC(=O)O)CC1)NC(=O)[C@H](Cc1ccc(O)cc1)NC(=O)[C@H](CO)NC(=O)[C@H](Cc1c[nH]c2ccccc12)NC(=O)[C@H](Cc1c[nH]cn1)NC(=O)[C@@H]1CCC(=O)N1)C(=O)N[C@@H](CCCNC(=N)N)C(=O)N1CCC[C@H]1C(=O)NCC(N)=O [indium-111 labelled],,"male athymic nude mice, DU-145 prostate cancer xenograft, tumour","intravenous, 0.037 MBq, 1 h",baseline: tumour over blood,tumour-to-tissue ratio,1.52
CCCC[C@H](NC(=O)CNC(=O)CNC(=O)[C@H](CCCCNC(=O)[C@H](CCN)NC(=O)C(C)c1ccc(CC(C)C)cc1)NC(=O)CN1CCN(CC(=O)O)CCN(CC(=O)O)CCN(CC(=O)O)CC1)C(=O)N[C@H]1CC(=O)NCCCC[C@@H](C(N)=O)NC(=O)[C@H](Cc2c[nH]c3ccccc23)NC(=O)[C@H](CCCNC(=N)N)NC(=O)[C@@H](Cc2ccccc2)NC(=O)[C@H](Cc2c[nH]cn2)NC1=O (stereo partly drawn) [lutetium-177 labelled],,"C57 mice, tumour",2 h,baseline: blood,tumour-to-tissue ratio,119
Cc1cc(NC(=O)[C@H](O)c2cc(F)cc(F)c2)ccc1-c1cnc(N)c(C(=O)NC(C)C)c1,,"athymic nude Foxn1nu mouse, female, plasma","oral, 50 mg/kg",,dose-normalised Cmax,156 ng·kg/mL/mg
Cc1cc(C)n(CCN(CCN)CCCCCCNC(=O)[C@@H](N)Cc2c[nH]cn2)n1.[99Tc+].[C-]#[O+].[C-]#[O+].[C-]#[O+],,BALB/c nude mice A549 xenograft,"intravenous, 4 h",baseline: tumour over blood,tumour-to-tissue ratio,3
CC(C)(c1cc(Br)c(O)c(Br)c1)c1cc(Br)c(O)c(Br)c1,,cow whole milk,20 nM,baseline: milk fat over skim milk,milk fat partition ratio,22.1
C=CC(=O)Nc1cc(Nc2nccc(-c3cn(C4CC4)c4ccccc34)n2)c(OC)cc1N(C)CCNC,autosampler stability,rat plasma,"1 ng/mL, 4 h, 10 °C",baseline: nominal concentration,relative error,12.6%
CN1CCC[C@]1(C)/C=C/S(=O)(=O)NC(=O)Nc1c2c(cc3c1CCC3O)CCC2 (stereo partly drawn),,"human, plasma","oral, 12.5 mg twice daily of parent drug, day 14, metabolite of dosed drug",,Tmax at second steady-state dose,3.5 h
CCNCC#CCNc1ccnc2cc(Cl)ccc12,measured: compound as metabolite,monkey hepatocytes,"10 µM DAQ, 30 min",higher = more metabolite formed,MS peak area,3.69e+06 a.u.
O=C(Nc1cnccc1-c1ccc([18F])cc1)c1ccnc(NC(=O)C2CC2)c1,,"FVB/NJ mice (both sexes), muscle","intravenous, dose not given, 120 min, with: tariquidar 15 mg/kg i.v. pre-dose",,SUV,0.23
COCC1CN(C2CCN(c3cc(OC)c(Nc4ncc(Br)c(Nc5ccc6c(c5P(C)(C)=O)OCCO6)n4)cc3C)CC2)C1,,EGFR-mutant NSCLC patients,"oral, 240 mg once daily",,grade ≥3 treatment-related AEs,100%
O=C(O)CCCOc1ccc([18F])cc1-c1cc(-c2ccccc2C(F)(F)F)n(-c2ccccc2)n1,,"mouse, muscle","intravenous, dose not given, 60 min",,tissue uptake,2.7 ± 0.43 %ID/g
CN1CCC[C@]1(C)/C=C/S(=O)(=O)NC(=O)Nc1c2c(cc3c1CCC3)CCC2,"measured: Headache, possibly related",human,"oral, 50 mg twice daily, 14 days, multiple ascending dose",,subjects with adverse event,16.7%
CC(C(=O)O)n1nc(Cn2cc3cc(OCC[18F])c(Cl)cc3n2)c2ccccc2c1=O (racemic),,"rat, blood",1 h,,tracer uptake,0.46 %ID/g
O=C(CCc1cn([C@@H]2O[C@H](C[18F])[C@@H](O)[C@H](O)[C@H]2O)nn1)Nc1ccc(-c2nnc(-c3ccccn3)nn2)nc1,,"BALB/c nude mouse, LS174T xenograft","intravenous, dose not given, 1 h, with: CC49-TCO pretargeting",,tumour to control tumour ratio,8.5
COc1cccc(OC)c1-c1cc(C(=O)NC2(C(=O)O)C3CC4CC(C3)CC2C4)nn1-c1ccc(C(=O)N(C)CCOCCN(C)C(=O)[C@H](CCCCNC(=O)[C@H](CC(C)C)NC(=O)C2OC2C(=O)O)NC(=O)CN2CCN(CC(=O)[O-])CCN(CC(=O)[O-])CCN(CC(=O)[O-])CC2)cc1C(C)C.[177Lu+3] (mixture of isomers),,"mouse, HT-29 xenograft","72 h post injection, biodistribution",baseline: tumour over heart uptake,tumour-to-heart ratio,17.9
O=C(NS(=O)(=O)c1cccs1)c1cc2ccccc2n1Cc1ccc(Br)c2ccccc12,,"Sprague-Dawley rat, male, ankle joint tissue","oral, 2 mg/kg, 2 h",,tissue concentration,83700 ng/g
CCCSc1ccc(S(N)(=O)=O)cc1,,,sulfonamide group,,pKa,10.2
CC[C@H](C)[C@@H]1NC(=O)[C@H](Cc2ccc(O)cc2)NC(=O)CCCSC[C@@H](C(=O)N(CC(=O)N[C@@H](CC(C)C)C(=O)NCC(N)=O)Cc2ccc(F)cc2)NC(=O)[C@H](CC(N)=O)NC(=O)[C@H](CCC(N)=O)NC1=O,,human,"intranasal, 200 µg repeated doses",,serious adverse events,0%
CC(C)OCCOCc1ccc(OCC(O)CN(N=O)C(C)C)cc1 (stereo not drawn),"duplex sequencing, measured: mutation frequency","NMRI mouse, bone marrow","oral, 29.85 mg/kg/day, 4 weeks",baseline: vehicle,fold change,1.33
C=C(NC(=O)c1csc(-c2nc3c(cc2O)-c2nc(cs2)C(=O)NC(C(C)O)C(=O)NC(=C(C)OC)c2nc(cs2)C(=O)NC2c4nc(cs4)C(=O)NC(COC(=O)c4c5c6c(cccc6n4O)COC(=O)C(OC4CC(C)(O)C(N(C)C)C(C)O4)C2OC5)c2nc-3cs2)n1)C(N)=O (stereo not drawn),,"Sprague-Dawley rat, female, plasma","intravenous infusion, 2 mg/kg single dose",,MRT(0-last),0.64 h

# A few entries again:
Structure (SMILES),test,system,conditions,how to read,endpoint,result
O=C(Nc1cnccc1-c1ccc([18F])cc1)c1ccnc(NC(=O)C2CC2)c1,,"FVB/NJ mice (both sexes), muscle","intravenous, dose not given, 120 min, with: tariquidar 15 mg/kg i.v. pre-dose",,SUV,0.23
COCC1CN(C2CCN(c3cc(OC)c(Nc4ncc(Br)c(Nc5ccc6c(c5P(C)(C)=O)OCCO6)n4)cc3C)CC2)C1,,EGFR-mutant NSCLC patients,"oral, 240 mg once daily",,grade ≥3 treatment-related AEs,100%
O=C(O)CCCOc1ccc([18F])cc1-c1cc(-c2ccccc2C(F)(F)F)n(-c2ccccc2)n1,,"mouse, muscle","intravenous, dose not given, 60 min",,tissue uptake,2.7 ± 0.43 %ID/g
CN1CCC[C@]1(C)/C=C/S(=O)(=O)NC(=O)Nc1c2c(cc3c1CCC3)CCC2,"measured: Headache, possibly related",human,"oral, 50 mg twice daily, 14 days, multiple ascending dose",,subjects with adverse event,16.7%
CC(C(=O)O)n1nc(Cn2cc3cc(OCC[18F])c(Cl)cc3n2)c2ccccc2c1=O (racemic),,"rat, blood",1 h,,tracer uptake,0.46 %ID/g
O=C(CCc1cn([C@@H]2O[C@H](C[18F])[C@@H](O)[C@H](O)[C@H]2O)nn1)Nc1ccc(-c2nnc(-c3ccccn3)nn2)nc1,,"BALB/c nude mouse, LS174T xenograft","intravenous, dose not given, 1 h, with: CC49-TCO pretargeting",,tumour to control tumour ratio,8.5
